Assay results of several laboratories.
Parts stem from different laboratories: compare values within a part only. Changes are numbered by the printed parent chain.

Sample 1 — method: DHFR PCA, deep sequencing; sample: yeast; together with: (+)-ABA 0.11 µM; reference: wild-type fitted maximum; reading: higher = stronger binding
Target: ABI1, truncated, D143A, DHFR fusion (Arabidopsis thaliana)
Notes: methotrexate growth selection, single substitutions
Starting sequence: PYL1, truncated, DHFR fusion (Arabidopsis thaliana); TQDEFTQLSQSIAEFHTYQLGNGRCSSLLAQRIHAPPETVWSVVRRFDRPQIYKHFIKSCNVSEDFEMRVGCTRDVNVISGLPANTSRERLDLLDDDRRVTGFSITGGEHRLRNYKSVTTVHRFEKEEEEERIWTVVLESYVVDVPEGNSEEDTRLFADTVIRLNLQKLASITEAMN
`I105R`: “relative binding score” -3.84%.
`E131T`: “relative binding score” 50%.
For `F103W`, “relative binding score” read -6.68%.
For `F15H`, “relative binding score” read 13%.
For `E131D`, “relative binding score” read 53.3%.
Under “relative binding score”, `S59Q` is recorded as 9.37%.
`G102P`: “relative binding score” -8.82%.
`D3M` — result for “relative binding score”: 31.3%.

Sample 2 — target: ATF1, bZIP domain (human); method: DHFR protein complementation; sample: yeast; reference: wild-type JUN-FOS pair; reading: higher = stronger binding
Notes: single substitutions, most at no-binding floor
Starting sequence: JUN, bZIP domain (human); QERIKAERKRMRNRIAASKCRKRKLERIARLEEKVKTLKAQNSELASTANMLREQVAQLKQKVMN; partner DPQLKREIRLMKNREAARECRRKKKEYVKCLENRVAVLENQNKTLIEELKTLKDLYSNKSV
`S47H` has a binding fitness of -1.57 natural log.
The binding fitness of `K39F` is reported as -1.55 natural log.
With `A29S` the binding fitness was -1.53 natural log.
`S43K` gave a binding fitness of -1.47 natural log.
For `R30D`, the binding fitness was -1.43 natural log.
`V35N` gave a binding fitness of -1.55 natural log.
`L45D` gave a binding fitness of -1.5 natural log.
`S43C` gave a binding fitness of -1.49 natural log.
With `S47G` the binding fitness was -1.48 natural log.
The binding fitness of `K39H` is reported as -1.49 natural log.
For `L45I`, the binding fitness was -1.5 natural log.
`V56S` gave a binding fitness of -1.53 natural log.
`T37K` gave a binding fitness of -1.47 natural log.
For `L52H`, the binding fitness was -1.56 natural log.

Sample 3 — target: CCND2, cyclin fold, Cln2 fusion (human); method: yeast growth competition, sequencing; sample: yeast; notes: weak parent motif; reference: not given; reading: higher = stronger binding
Starting sequence: PKN2 docking peptide (human); VSAVQKLDFSDTM
`T12L`: “normalised enrichment score” 0.707.
`L7E`: “normalised enrichment score” 0.134.
For `D8V`, “normalised enrichment score” read 0.333.
Under “normalised enrichment score”, `V1E` is recorded as 0.168.
Under “normalised enrichment score”, `S10W` is recorded as 0.317.
Under “normalised enrichment score”, `K6L` is recorded as 0.283.
Under “normalised enrichment score”, `T12M` is recorded as 0.318.
For `M13V`, “normalised enrichment score” read 0.551.
Under “normalised enrichment score”, `D11M` is recorded as 0.351.
Under “normalised enrichment score”, `K6I` is recorded as 0.159.
`T12A`: “normalised enrichment score” 0.685.
Under “normalised enrichment score”, `D8Q` is recorded as 0.553.
`S2H`: “normalised enrichment score” 0.418.
`K6S`: “normalised enrichment score” 0.418.
`A3P` — result for “normalised enrichment score”: 0.474.
`D8Y`: “normalised enrichment score” 0.414.

Sample 4 — method: protein binding microarray; molecule type: double-stranded DNA, one strand shown; sample: in vitro; concentration: not given; reference: not given; reading: higher = stronger binding
Target: Histone acetyltransferase KAT6A, winged helix 1, GST fusion (KAT6A, Homo sapiens, UniProt Q92794, residues 1-85)
Notes: 8-mer, flanks averaged, mean of 2 arrays, mostly near background
Construct (chain): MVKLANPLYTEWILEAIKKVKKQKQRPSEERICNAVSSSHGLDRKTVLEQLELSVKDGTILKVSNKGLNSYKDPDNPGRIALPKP
With `CGCCCAAG` the E-score was 0.141.
With `CGTCTCCC` the E-score was 0.0675.
With `CTGGACGA` the E-score was -0.16.
`AACATATG` has an E-score of -0.0705.
`GAGCGTCA` has an E-score of 0.119.
With `CGCCTTTA` the E-score was 0.0999.
With `CAGTACTG` the E-score was 0.0483.
For `AACCCAAT`, the E-score was -0.178.
`ATGCGCCG` has an E-score of 0.43.
`ACGCGTCT` has an E-score of 0.304.
The E-score of `AATGTAAC` is reported as -0.0444.
For `AATGCACT`, the E-score was -0.11.
For `CCTATAAC`, the E-score was -0.247.
`GTATAACA` gave an E-score of -0.08.
With `GTGTTCAA` the E-score was 0.0275.
The E-score of `ACCCACAC` is reported as 0.0207.
For `AGCACTAG`, the E-score was -0.0844.
The E-score of `GACGTTGC` is reported as 0.0582.
`TCTCGCAA` has an E-score of 0.0238.
`CTTACAAG` has an E-score of -0.0916.
With `CATGACGG` the E-score was 0.248.

Sample 5 — method: protein-binding microarray; molecule type: double-stranded DNA, one strand shown; sample: in vitro; concentration: 2200 nM top; notes: 60-bp whole probe; together with: salmon DNA 0.4 mg/ml; reference: random background probes; reading: higher = stronger binding; constant ends, left off below: GCCTAGCAC … GTCTTGATTCGCTTGACGCTGCTG
Target: Interferon regulatory factor 7, full length, phosphomimetic (IRF7, Homo sapiens, UniProt Q92985, residues 1-503, S471D/S472D/S475D/S476D/S477D/S483D/S484D/S487D)
Chain of UniProt Q92985 (whole entry, unmodified, looked up): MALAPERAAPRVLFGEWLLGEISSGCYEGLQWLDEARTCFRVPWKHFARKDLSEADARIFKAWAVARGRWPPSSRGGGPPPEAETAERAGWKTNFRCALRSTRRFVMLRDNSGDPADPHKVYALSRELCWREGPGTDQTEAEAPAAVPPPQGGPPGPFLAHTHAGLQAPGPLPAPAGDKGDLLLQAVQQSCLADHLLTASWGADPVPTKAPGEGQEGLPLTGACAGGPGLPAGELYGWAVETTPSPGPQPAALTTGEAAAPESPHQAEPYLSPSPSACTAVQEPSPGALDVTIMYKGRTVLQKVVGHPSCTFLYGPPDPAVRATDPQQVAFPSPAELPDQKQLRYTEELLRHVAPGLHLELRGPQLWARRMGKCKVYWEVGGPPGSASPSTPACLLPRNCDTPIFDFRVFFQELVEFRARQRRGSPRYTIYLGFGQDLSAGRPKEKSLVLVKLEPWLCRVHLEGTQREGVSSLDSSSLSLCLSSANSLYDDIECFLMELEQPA
Under “fitted relative affinity”, `GACGGTCTCGGTACCGGGACGTGCTAG` is recorded as -0.304 z-score.
`TTAGGACTGGGTTTCGTTTAGTGCTAG` — result for “fitted relative affinity”: 3.05 z-score.
Under “fitted relative affinity”, `TTAGGTATCGACTTTCGGTGAGTGCTA` is recorded as 1.92 z-score.
For `GTGTGCATCTATCTTAAATAGTGCTAG`, “fitted relative affinity” read 0.223 z-score.
`TTAGGTATCTTTATCCTTTAGTGCTAG` — result for “fitted relative affinity”: 0.664 z-score.
`GACGAACTGGGGTTTCGAGAAGTGCTA`: “fitted relative affinity” 0.374 z-score.
For `AACGGTTTCGACACTGGGGACGTGCTA`, “fitted relative affinity” read 3.09 z-score.
Under “fitted relative affinity”, `CAATTCCTGAAATCTCTTTCCGTGCTA` is recorded as 1.1 z-score.
`GACGGTTTCGGACTGGGGTCGTGCTAG` — result for “fitted relative affinity”: 3.86 z-score.
`TCAAAAATCAAGTCTGGGACTGTGCTA`: “fitted relative affinity” -0.866 z-score.
For `TACGGACTGGGGTTTCGGGACGTGCTA`, “fitted relative affinity” read 0.67 z-score.
Under “fitted relative affinity”, `TTAGATCTCAGACTGGATAAGTGCTAG` is recorded as -0.304 z-score.
`TCAATTCTCAGCCCTGCGACTGTGCTA`: “fitted relative affinity” 0.476 z-score.
`GACGGTTTCGGGAGTGGGGACGTGCTA` — result for “fitted relative affinity”: 2.3 z-score.
Under “fitted relative affinity”, `TCACGTATCTTCATTGTACTGTGCTAG` is recorded as 1.76 z-score.
`TTAGGTTTCGGGTTTCGGTCAGTGCTA`: “fitted relative affinity” 9.61 z-score.
Under “fitted relative affinity”, `TTAGAACTGGGGTATCGGTTAGTGCTA` is recorded as 0.00184 z-score.
`TTAGATCACAGTCTCGATTAGTGCTAG` — result for “fitted relative affinity”: 0.477 z-score.
For `TAAGATCTCAGTTTCGATTAGTGCTAG`, “fitted relative affinity” read 5.57 z-score.
`GACGATCTCCGTCTCGAGACGTGCTAG`: “fitted relative affinity” 0.749 z-score.
For `GATGGTTTCGGGTTTCGGGACGTGCTA`, “fitted relative affinity” read 10 z-score.
For `GACGTTCTCCTTATCCTGACGTGCTAG`, “fitted relative affinity” read 2.28 z-score.
Under “fitted relative affinity”, `TCCTCTCTGCCACTCAGGTAGTGCTAG` is recorded as 1.14 z-score.
`TTTGATTTCAGTATCGATTAGTGCTAG`: “fitted relative affinity” 1.47 z-score.
For `GTAGTTTTCATTATTGTTTCGTGCTAG`, “fitted relative affinity” read 2.83 z-score.

Sample 6 — method: protein-binding microarray; molecule type: double-stranded DNA, one strand shown; sample: in vitro; concentration: not given; reading: higher = stronger binding
Target: Max dimerization protein 1, bHLH-zipper, MAX partner unstated (MXD1, Homo sapiens, UniProt Q05195, residues 56-136)
Notes: k-mer, scored over probes, only values ≥0.25
Construct (chain): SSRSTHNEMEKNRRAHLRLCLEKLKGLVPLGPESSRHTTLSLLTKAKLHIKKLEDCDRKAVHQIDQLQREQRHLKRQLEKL
For `GGTGGCCA`, the E-score was 0.25.
For `CGCCCCCC`, the E-score was 0.326.
For `ACGTGAGC`, the E-score was 0.262.
With `CACATTTC` the E-score was 0.252.
With `GTAAGGCA` the E-score was 0.311.
With `CATGTCAC` the E-score was 0.355.
For `ATCACGCC`, the E-score was 0.28.
The E-score of `CCACACGC` is reported as 0.374.
For `AGGCATGC`, the E-score was 0.367.
`ACGTGTAA` gave an E-score of 0.348.
`AAACGTGA` has an E-score of 0.282.
`CGTGGATA` gave an E-score of 0.272.
With `CCACACGA` the E-score was 0.296.
`CGTGCGGA` gave an E-score of 0.288.

Sample 7 — method: universal PBM; molecule type: double-stranded DNA, one strand shown; sample: in vitro; concentration: 600 nM; reading: higher = stronger binding
Target: Sal-like protein 4, full length isoform A (SALL4, Homo sapiens, UniProt Q9UJQ4, residues 1-1053)
Chain of UniProt Q9UJQ4 (whole entry, looked up): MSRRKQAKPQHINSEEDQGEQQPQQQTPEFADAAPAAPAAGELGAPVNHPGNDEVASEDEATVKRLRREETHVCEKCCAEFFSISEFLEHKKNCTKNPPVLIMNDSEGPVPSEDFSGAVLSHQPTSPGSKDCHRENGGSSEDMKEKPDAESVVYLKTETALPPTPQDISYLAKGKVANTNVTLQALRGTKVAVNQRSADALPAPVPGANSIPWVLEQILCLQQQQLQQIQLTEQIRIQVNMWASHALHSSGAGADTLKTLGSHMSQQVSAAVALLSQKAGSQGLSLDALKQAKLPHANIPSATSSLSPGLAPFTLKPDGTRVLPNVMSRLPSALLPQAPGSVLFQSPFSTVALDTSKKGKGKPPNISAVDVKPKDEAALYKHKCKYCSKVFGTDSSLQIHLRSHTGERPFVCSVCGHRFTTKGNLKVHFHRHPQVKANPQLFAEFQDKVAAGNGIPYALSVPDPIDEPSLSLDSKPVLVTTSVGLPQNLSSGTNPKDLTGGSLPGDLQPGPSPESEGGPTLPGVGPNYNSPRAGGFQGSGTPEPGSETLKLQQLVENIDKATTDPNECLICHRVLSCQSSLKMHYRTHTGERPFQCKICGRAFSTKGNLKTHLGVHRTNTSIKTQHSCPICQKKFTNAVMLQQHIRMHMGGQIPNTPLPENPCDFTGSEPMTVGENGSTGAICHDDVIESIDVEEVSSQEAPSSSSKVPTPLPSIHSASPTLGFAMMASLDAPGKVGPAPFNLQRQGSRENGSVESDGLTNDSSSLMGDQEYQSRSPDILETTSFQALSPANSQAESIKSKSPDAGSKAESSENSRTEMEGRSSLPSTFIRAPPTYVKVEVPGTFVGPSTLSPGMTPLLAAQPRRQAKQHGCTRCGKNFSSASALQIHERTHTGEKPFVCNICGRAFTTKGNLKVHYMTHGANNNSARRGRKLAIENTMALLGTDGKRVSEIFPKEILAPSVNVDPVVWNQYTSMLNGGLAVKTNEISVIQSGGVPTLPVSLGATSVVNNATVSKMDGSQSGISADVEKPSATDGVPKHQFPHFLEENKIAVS
Notes: 8-mer, flanks averaged, mean of replicates
For `GGGGTACC`, the E-score was -0.237.
For `CATGAATC`, the E-score was 0.0554.
The E-score of `CATCGCGC` is reported as -0.191.
For `AAGGCGAA`, the E-score was -0.107.
For `ATTGCCGG`, the E-score was -0.212.
`AAAGCTGT` gave an E-score of 0.0202.
`TGAATGAA` gave an E-score of 0.218.
`AGGGTGCC` has an E-score of -0.177.
With `CTAACGAC` the E-score was -0.0297.
`AAGGACGG` has an E-score of -0.187.
For `GTTACGTA`, the E-score was -0.0231.
With `CGGGAAAA` the E-score was -0.0791.
The E-score of `AAGGACGT` is reported as 0.149.
`GAGGTATC` has an E-score of -0.154.
For `CAAGTTGG`, the E-score was 0.00734.
The E-score of `TGGGTTAA` is reported as 0.00332.
The E-score of `CTGAATGA` is reported as 0.121.
`TCAGATCA` has an E-score of -0.0123.
The E-score of `GAAATTAC` is reported as 0.34.
For `ACCGCCGC`, the E-score was -0.234.
The E-score of `CAACGGTA` is reported as -0.17.
`AGTGGCGC` has an E-score of -0.167.
With `GAGCGGGC` the E-score was -0.379.
For `CCAGTTGA`, the E-score was -0.192.
`GGTCTTAC` gave an E-score of -0.0969.

Excerpt of the above (sample 7):
`AGGGTGCC` has an E-score of -0.177.
With `CTAACGAC` the E-score was -0.0297.
`AAGGACGG` has an E-score of -0.187.
For `GTTACGTA`, the E-score was -0.0231.
With `CGGGAAAA` the E-score was -0.0791.
The E-score of `AAGGACGT` is reported as 0.149.
`GAGGTATC` has an E-score of -0.154.
For `CAAGTTGG`, the E-score was 0.00734.
The E-score of `TGGGTTAA` is reported as 0.00332.
The E-score of `CTGAATGA` is reported as 0.121.
